Measured values gathered from unrelated publications.
Compare with care: the assays were run in different laboratories. Values joined by “and” are separate records of one study, mostly repeats; a detail may differ. ± marks the error that the study gave.

SMILES	test	test system	setting	how to read	measurement	result
Cc1[nH]c(/C=C2\C(=O)Nc3ccc(F)cc32)c(C)c1NC(=O)CCN1CCN(C)CC1		dog plasma	40 ng/mL nominal, 30 d, -80 °C, frozen storage		measured concentration	39.6 ng/mL
COC(=O)c1ccc(-c2cn(Cc3cc(Cl)ccc3O[11CH3])nn2)cc1	PET, one-tissue compartment model	rhesus monkey, brain Putamen	dose not given		distribution volume	0.634 mL/cm³
c1ccc(COc2cc3nc(c2)CNCCNCCNC3)cc1	pH-potentiometric titration		I 0.15 M NaCl, 298 K		sum of log K N-donors	20.6
CCCC[C@H](NC(=O)CN1CCC(NC(=O)CN2CCN(CC(=O)O)CCN(CC(=O)O)CCN(CC(=O)O)CC2)CC1)C(=O)N[C@H]1CC(=O)NCCCC[C@@H](C(N)=O)NC(=O)[C@H](Cc2c[nH]c3ccccc23)NC(=O)[C@H](CCCNC(=N)N)NC(=O)[C@@H](Cc2ccccc2)NC(=O)[C@H](Cc2c[nH]cn2)NC1=O [gallium-68 labelled]		male C57BL/6J mice, B16-F10 tumours, spleen	intravenous, 1 h, blocking study, added: 100 µg non-radioactive Ga-peptide		tissue uptake	1.1 ± 0.5 %ID/g
C[C@]12CC[C@@H]3c4ccc(OCC(=O)N[C@@H](CCCCNC(=O)CN5CCN(CC(=O)[O-])CCN(CC(=O)[O-])CCN(CC(=O)[O-])CC5)C(=O)O)cc4CC[C@H]3[C@@H]1CCC2=O.[177Lu+3]		female nude mice, MCF7 xenograft	1 h post injection		tumour uptake	3.79 ± 0.87 % IA/g
CC(C)[C@H](NC(=O)CNC(=O)[C@H](CCC(N)=O)NC(=O)[C@H](C)N)C(=O)O	LC-MS/MS	human, male, plasma	intravenous, 20 mg/kg three times daily, day 1, first dose, 10 min infusion, geometric mean		clearance	667 mL/min/kg
N#Cc1cc(C(=O)OCC[18F])c(C(F)(F)F)nc1N1CCN(C(=O)Cc2ccccc2)CC1	dynamic PET	healthy mouse, brain	intravenous, 11.1 MBq		peak SUV	1.77 ± 0.27
CC(=O)N[C@H](CC(=O)O)C(=O)N[C@H](Cc1c[nH]c2ccccc12)C(=O)N[C@H](Cc1ccccc1)C(=O)N[C@H](CCCCN)C(=O)N[C@H](C)C(=O)N[C@H](Cc1ccccc1)C(=O)N[C@H](Cc1ccc(O)cc1)C(=O)N[C@H](CC(=O)O)C(=O)N[C@H](CCCCN)C(=O)N[C@@H](C(=O)N[C@H](C)C(=O)N[C@H](CCC(=O)O)C(=O)N[C@H](CCCCN)C(=O)N[C@H](Cc1ccccc1)C(=O)N[C@H](CCCCN)C(=O)N[C@H](CCC(=O)O)C(=O)N[C@H](C)C(=O)N[C@H](Cc1ccccc1)C(N)=O)C(C)C		statin-treated high-risk CHD women, plasma	oral, 500 mg daily, day 1, 0 to 2 h, mean, outlier excluded		Cmax	67.3 ng/mL
Cc1ccc(OCC(=O)O)cc1		Sprague-Dawley rat Crl:CD(SD), male, plasma	oral, 10 mg/kg/day of parent drug, day 90, 90-day repeated dosing		t1/2	253 min
CC(C)(O)c1ncc([S@](N)(=O)=NC(=O)Nc2c3c(cc4c2CCC4)CCC3)s1		healthy human subjects		relative to: human liver blood flow	apparent oral clearance	≤ 2%
O=[11C](N1CCC(CNS(=O)(=O)c2ccc(Cl)cc2)CC1)n1cncn1	PET	Sprague-Dawley rat, brain	intravenous	relative to: SUV 5 min over SUV 60 min	washout ratio	1
NC(=O)[C@@H](CCCCNC(=O)CNC(=O)CCC(=O)NCCc1c[nH]cn1)NC(=O)[C@@H](CCC(=O)O)NC(=O)[C@@H](CCCCNC(=O)CNC(=O)CCC(=O)NCCc1c[nH]cn1)NC(=O)[C@@H](Cc1ccc(O)cc1)NC(=O)CN1CCN(CC(=O)O)CCN(CC(=O)O)CCN(CC(=O)O)CC1 [indium-111 labelled]	SPECT	human, CEACAM5-expressing tumours, psoas muscle	intravenous, dose not given, 24 h, added: TF2 pretargeting 150 mg		muscle activity concentration	0.19 %ID/kg
O=C(CCc1ccc(CNC(C(=O)OC2CCCC2)C2CCCCC2)cn1)NO (stereo not drawn)		human, plasma	oral, 60 mg single dose, geometric mean		AUC(0-t)	244 ng·h/mL
COC(=O)C(c1ccccc1Cl)N1CCC2SC(=O)C=C2C1 (stereo not drawn)	LC-MS/MS	human plasma extract	50 ng/mL spiked, 8 h, room temperature		measured concentration	50.1 ± 7.6 ng/mL
O=C([O-])CN1CCN(CC(=O)[O-])CCN(CC(=O)NCC2CCC(C(=O)NC(Cc3ccc4ccccc4c3)C(=O)NCCCCC(NC(=O)NC(CCC(=O)O)C(=O)O)C(=O)O)CC2)CCN(CC(=O)[O-])CC1.[44Sc+3] (stereo not drawn)	transmetallation stability		2 h, 37 °C, added: Fe3+ 10 mM		intact complex	98 ± 0.8%
CC(C)c1cnc(-c2cc(Cl)ccc2F)cc1Nc1ccncc1C(=O)NC(CO)CO	monotherapy, measured: vomiting	human patients	oral, dose not given, grade 2, phase I A		patients with treatment-related adverse event	0%
CCCC[C@H](NC(=O)[C@H](CC(C)C)N(C)C(=O)CNC(=O)[C@@H](NC(=O)[C@H](Cc1ccccc1)NC(=O)[C@H](CCCCN)NC(=O)[C@@H](N)CC(=O)O)C(C)C)C(N)=O		anesthetized Gottingen minipig	subcutaneous, 10 µg/kg	relative to: baseline	mean arterial pressure	-4.6 ± 2.67%
COc1cc(NC(C)=O)c2c(c1O)-c1c(OC)c(OC)cc3c1C(C2)N(C)CC3 (stereo not drawn)		rat lung homogenate	0.5 µg/mL, time not given, three freeze-thaw cycles		remaining compound	104 ± 2.6%
COCC1CN(C2CCN(c3cc(OC)c(Nc4ncc(Br)c(Nc5ccc6c(c5P(C)(C)=O)OCCO6)n4)cc3C)CC2)C1		human patients	oral, 10 to 240 mg once daily		treatment-related γ-GTT increased, all grades	11.1%
O=C(O)[C@@H]1C[C@@H](O)CN1C(=O)[C@@H]1CCCN1	potentiometric titration	water	25 °C, 0.15 mol/dm3 NaCl		pKa3	> 12
CCCCCCCCCCCCCCCC(=O)N[C@@H](CCCCN)C(=O)N[C@@H](CCCCN)C(=O)N[C@@H](CO)C(=O)N[C@@H](CCCNC(=N)N)C(=O)N[C@@H](C)C(=O)N[C@@H](CC(C)C)C(=O)N[C@@H](Cc1ccccc1)C(N)=O		cynomolgus monkey, female	10 mg/kg, day 1		activated partial thromboplastin time	27.3 ± 2.3 s

SMILES	test	test system	setting	how to read	measurement	result
COCCOCCOCCOCCOCCOCCOCCOCCC(=O)NCCCc1cc2cc3nc(cc4[nH]c(cc5nc(c(OC)c1[nH]2)C(=O)C5(C)C)cc4CCc1ccc(C(=O)O)cc1)CC3(C)C		water with 5% DMF	room temperature		Qy emission FWHM	32 nm
CC[C@H](C)[C@H](NC(=O)CNC(=O)CNC(=O)c1ccc2c(c1)C(=O)OC21c2ccc(O)cc2Oc2cc(O)ccc21)C(=O)N[C@@H](Cc1ccc(O)cc1)C(=O)N[C@@H](C)C(=O)N(C)CC(=O)N1CCC[C@H]1C(=O)N(C)[C@@H](Cc1ccccc1)C(=O)N[C@@H](CCCCN)C(=O)N[C@@H](CCCCN)C(=O)N[C@@H](CCCCN)C(N)=O	CE-LIF	Baf/BCR-ABL cytosolic lysate (mouse)	60 min		C-terminal carboxylate fragment share	43 ± 2%
N=C(N)NCCC[C@@H]1NC(=O)[C@H](Cc2c[nH]c3ccccc23)NC(=O)[C@@H](CC2CCCCC2)NC(=O)[C@@H]2CCCN2C(=O)[C@@H](NC(=O)CCc2ccccc2)CCCNC1=O		C57BL/6J mice, brain	intraperitoneal, 1 mg/kg		elimination half-life	46.6 min
CCN(CC)c1ccc2c(-c3ccc(S(=O)(=O)NCCNC(=O)CN4CCN(CC(=O)[O-])CCN(CC(=O)O)CCN(CC(=O)[O-])CC4)cc3S(=O)(=O)[O-])c3ccc(=[N+](CC)CC)cc-3oc2c1.[64Cu+2]		athymic nude mice, U-87 MG glioma xenograft	intravenous, 0.5 h post-injection		tumour uptake	6.54 ± 1.5 %ID/g
COc1c2c(cc3oc(C)cc(=O)c13)O[C@H](C(C)(C)O[C@@H]1O[C@H](CO)[C@@H](O)[C@H](O)[C@H]1O)C2		simulated intestinal fluid with pancreatin	2 h, pH 6.8, 37 °C		transformation rate	33.4% and ~33.4%
Cn1c(=O)c2c(nc(CN3CCN(C(=O)C4CC4)CC3)n2Cc2ccccc2)n(C)c1=O	metabolic stability	rat, liver microsomes			half-life	26 min
CC(C)(C)CC(C)(C)Nc1c(-c2ccc3c(c2)OCO3)nc2cnccn12		Wistar rat, liver	1000 mg/kg	relative to: control	MDA level	increased
[11CH3]c1ccc2nc(C3CCC3)n(-c3ccc4[nH]ncc4c3)c2n1		standard human adult, skin			absorbed radiation dose	2 µSv/MBq
O=C(CCCCC[N+]#[C][99Tc-5]([C]#[N+]CCCCCC(=O)N[C@H]1C(O)O[C@H](CO)[C@@H](O)[C@@H]1O)([C]#[N+]CCCCCC(=O)N[C@H]1C(O)O[C@H](CO)[C@@H](O)[C@@H]1O)([C]#[N+]CCCCCC(=O)N[C@H]1C(O)O[C@H](CO)[C@@H](O)[C@@H]1O)([C]#[N+]CCCCCC(=O)N[C@H]1C(O)O[C@H](CO)[C@@H](O)[C@@H]1O)[C]#[N+]CCCCCC(=O)N[C@H]1C(O)O[C@H](CO)[C@@H](O)[C@@H]1O)N[C@H]1C(O)O[C@H](CO)[C@@H](O)[C@@H]1O (stereo partly drawn)	SPECT/CT	nude mouse with U87 MG xenograft	2 h		tumour/non-tumour ratio	3.09 ± 0.19
CNC(=O)N[C@]1(C)CCC[C@@]2(C)C3CC[C@@]4(C)C[C@]3(CCC21)CC4=O (single isomer, unassigned)		rat plasma	400 ng/mL, 8 h, room temperature, short-term stability		measured concentration	371 ± 13.3 ng/mL
CC(C)C[C@@H](NC(=O)[C@H](NC(=O)[C@H]1CCCN1)[C@H](C)O)C(=O)N[C@H](Cc1c[nH]cn1)C(=O)N[C@@H](C(=O)N[C@H](Cc1c[nH]cn1)C(=O)N[C@H](CC(N)=O)C(=O)N[C@H](CCCNC(=N)N)C(=O)N[C@H](CCCNC(=N)N)C(=O)N[C@H](CCCNC(=N)N)C(=O)N[C@H](CCCNC(=N)N)C(=O)N[C@H](CCCNC(=N)N)C(N)=O)[C@H](C)O		beagle dog, plasma	intravenous, 3 mg/kg, single dose		Vd	0.659 L/kg
CCCC(CCC)NC(=O)c1ccc(O)c(OC2OC(C(=O)O)C(O)C(O)C2O)c1 (stereo not drawn)	LC-MS extracted ion chromatogram	Sprague-Dawley rat, male and female, pooled plasma	oral, 200 mg/kg, 1 h		peak area	648000 cps
COc1ccc(/C=C/c2ccc(-c3ccc(C)cn3)nc2)cc1		benzene	added: quinine bisulfate reference		fluorescence quantum yield	0.53
CCOC(=O)c1[nH]c(C)c(/C=C/C2=[N+]3C(=C(c4cc(OC)cc(OC)c4)c4c(C)c(I)c(/C=C/c5c(C)[nH]c(C(=O)OCC)c5C)n4[B-]3(F)F)C(C)=C2I)c1C		THF			Stokes shift	573 cm⁻¹
OC1(C(F)(F)F)CCN(c2nc(Nc3ccnc(C(F)(F)F)c3)nc(-c3cccc(C(F)(F)F)n3)n2)C1 (stereo not drawn)		Sprague-Dawley rat, both sexes, faeces	oral, 10.1 mg/kg	relative to: dose	excretion of parent and metabolites	> 90%
CCCC(CCC)NC(=O)c1ccc(OS(=O)(=O)O)c(OC)c1	LC-MS extracted ion chromatogram	Sprague-Dawley rat, male and female, pooled plasma	oral, 200 mg/kg, 1 h		peak area	1.14e+06 cps
COCCOCCOCCOCCC(=O)NCc1cc(CNC(=O)CCOCCOCCOCCOC)cc(-c2cc3cc4nc(c(-c5ccc(CCC(=O)O)cc5)c5[nH]c(cc6nc(c(OC)c2[nH]3)CC6(C)C)cc5-c2cc(CNC(=O)CCOCCOCCOCCOC)cc(CNC(=O)CCOCCOCCOCCOC)c2)CC4(C)C)c1		water with 5% DMF	room temperature		Qy emission maximum	731 nm
CNc1cc(OC)c(Nc2nccc(-c3cn(C4CC4)c4ccccc34)n2)cc1NC(=O)CCSCC(NC(C)=O)C(=O)O (stereo not drawn)	radio-HPLC, co-eluting peaks pooled	human, urine	dose not given, 0 to 96 h, sample holds 4.16% dose	relative to: sample radioactivity	share of radioactivity	1.7%
Cn1c(=O)oc2ccc(-c3ccc(CC(C#N)NC(=O)C4CNCCCO4)c(F)c3)cc21 (stereo not drawn)	measured: alanine aminotransferase increased	human volunteers	oral, 40 mg, single ascending dose fed		treatment-related adverse event incidence	0%
O=c1nc(NO)ccn1[C@@H]1O[C@H](CO)[C@@H](O)[C@H]1O	RT-PCR, measured: CYP2C11	normal rat, liver	oral, 80 mg/kg twice daily, 5 days	relative to: untreated rats	mRNA level	0.1 fold
O=C(O)C1CN(Cc2ccc(-c3noc(-c4ccc(OCC[18F])c(C(F)(F)F)c4)n3)cc2)C1		rat, bone	intravenous, 30 min		tracer uptake	0.114 %ID/g

Some of these lines once more:
SMILES	test	test system	setting	how to read	measurement	result
OC1(C(F)(F)F)CCN(c2nc(Nc3ccnc(C(F)(F)F)c3)nc(-c3cccc(C(F)(F)F)n3)n2)C1 (stereo not drawn)		Sprague-Dawley rat, both sexes, faeces	oral, 10.1 mg/kg	relative to: dose	excretion of parent and metabolites	> 90%
CCCC(CCC)NC(=O)c1ccc(OS(=O)(=O)O)c(OC)c1	LC-MS extracted ion chromatogram	Sprague-Dawley rat, male and female, pooled plasma	oral, 200 mg/kg, 1 h		peak area	1.14e+06 cps
COCCOCCOCCOCCC(=O)NCc1cc(CNC(=O)CCOCCOCCOCCOC)cc(-c2cc3cc4nc(c(-c5ccc(CCC(=O)O)cc5)c5[nH]c(cc6nc(c(OC)c2[nH]3)CC6(C)C)cc5-c2cc(CNC(=O)CCOCCOCCOCCOC)cc(CNC(=O)CCOCCOCCOCCOC)c2)CC4(C)C)c1		water with 5% DMF	room temperature		Qy emission maximum	731 nm
CNc1cc(OC)c(Nc2nccc(-c3cn(C4CC4)c4ccccc34)n2)cc1NC(=O)CCSCC(NC(C)=O)C(=O)O (stereo not drawn)	radio-HPLC, co-eluting peaks pooled	human, urine	dose not given, 0 to 96 h, sample holds 4.16% dose	relative to: sample radioactivity	share of radioactivity	1.7%
Cn1c(=O)oc2ccc(-c3ccc(CC(C#N)NC(=O)C4CNCCCO4)c(F)c3)cc21 (stereo not drawn)	measured: alanine aminotransferase increased	human volunteers	oral, 40 mg, single ascending dose fed		treatment-related adverse event incidence	0%
